Results from different studies.
Each line is one published result; not all experiments were run side by side. ± gives the spread as reported.
Organism: Plasmodium falciparum

Cc1c(-c2ccc(Cc3ccc(OC(F)(F)F)cc3)cc2)[nH]c2cccc(F)c2c1=O  EC50 (parasite growth, SYBR Green; 3D7; blood stage): 16 nM
O=C1C2=C(Nc3ccccc3SC2C2CCCCC2)c2ccccc21 (racemic)  EC50 (growth, [3H]hypoxanthine incorporation; 3D7): 34 nM
CCCCCCCCCC1=CC(=O)c2ccccc2S1(=O)=O  EC50 (parasite growth; 3D7; 72 h, blood stage): 69900 nM
COc1ccc(NC(C)(C)C(=O)Nc2ccc(F)c(Cl)c2)cc1S(=O)(=O)N1CCOCC1  EC50 (parasite growth; 3D7; blood stage): 14 nM
CC(=O)N[C@@H](CCCNC(=N)N)C(=O)N[C@H](C(=O)N[C@@H](Cc1c[nH]c2ccccc12)C(=O)N[C@@H](Cc1c[nH]cn1)C(=O)N[C@@H](C)C(=O)C(=O)NCCCCc1ccccc1)C(C)C  EC50 (3D7): 330 ± 40 nM
Cc1ccc(NCCNc2ccc(F)c(Cl)c2)cc1S(=O)(=O)N1CCOCC1  EC50 (parasite growth; 3D7; blood stage): 22600 nM
Cc1ccc(CNC(=O)[C@@H](NC(=O)[C@H](CCc2ccccc2)NC(=O)[C@H](CCc2ccccc2)NCc2cnccn2)C(C)C)cc1  EC50 (parasite growth; D10; 72 h, blood stage): 221 nM
CC(C)=CCC/C(C)=C/Cc1c(CCC(=O)c2ccc(O)cc2O)ccc(O)c1O  EC50 (parasite growth, PfLDH; 3D7 wild type): 10400 nM
O=c1cc[s+]([O-])c2ccccc12 (racemic)  EC50 (parasite growth; 3D7; 72 h, blood stage): 106000 nM
COc1ccc(C2Sc3ccccc3NC3=C2C(=O)c2ccccc23)cc1 (racemic)  EC50 (growth, [3H]hypoxanthine incorporation; 3D7): 2000 nM
O=c1cc[s+]([O-])c2ccc(Cl)cc12 (single isomer, unassigned; (+))  EC50 (parasite growth; 3D7; 72 h, blood stage): 157000 nM
CNC(=O)c1c(F)cccc1Nc1nc(Nc2cc3c(cc2OC)CCN3C(=O)CN(C)C)nc2[nH]ccc12  EC50 (parasite growth; W2; blood stage): 1580 nM
Cc1ccc(CNC(=O)[C@@H](NC(=O)[C@H](CCc2ccccc2)NC(=O)[C@@H](NC(=O)c2cnc(C)cn2)C(C)(C)C)C(C)C)cc1  EC50 (parasite growth; D10; 72 h, blood stage): 64.4 nM
COc1ccc(S(=O)(=O)NCc2c[nH]nc2-c2cccs2)cc1  EC50 (parasite growth, ex vivo schizont maturation; Brazilian Western Amazon isolates): 617 nM
Cc1ccc(NCC(=O)Nc2ccc(F)c(Cl)c2)cc1S(=O)(=O)N(C)C  EC50 (parasite growth; 3D7; blood stage): 690 nM
COc1cc(C(=O)N2CCN(C)CC2)ccc1-c1cc2nccc(-c3ccc4cnccc4c3)c2o1  EC50 (parasite growth; 3D7; blood stage): 160 nM
Cc1ccc(NCC(=O)Nc2cnccn2)cc1S(=O)(=O)N1CCOCC1  EC50 (parasite growth; 3D7; blood stage): > 50000 nM
CC(C)C[C@@H](/C=C/S(C)(=O)=O)NC(=O)[C@H](CC(C)C)NC(=O)[C@H](CCc1ccccc1)NC(=O)CN1CCOCC1  EC50 (flow cytometry YOYO-1; W2 ring stage; 72 h no washout): 3 ± 0.6 nM
Cc1ccc(NCC(=O)Nc2ccc(F)c(Cl)c2)cc1S(=O)(=O)N1CCCCC1  EC50 (parasite growth; 3D7; blood stage): 220 nM
Cc1ccc(CNC(=O)[C@@H]2Cc3cccc(c3)Oc3cccc(c3)C[C@H](N)C(=O)N[C@@H](CCc3ccccc3)C(=O)N2)cc1  EC50 (parasite growth; D10; 72 h, blood stage): 34.5 nM
Cc1ccc(NCC(=O)NC2CCC(F)(F)CC2)cc1S(=O)(=O)N1CCOCC1  EC50 (parasite growth; 3D7; blood stage): 1710 nM
COC(=O)c1[nH]c(C(=O)OC)c2c1-c1c[nH]c3ccc(Cl)c(c13)[C@]21C=Nc2ccc(Cl)cc21  EC50 (parasite growth, SYBR Green; 3D7; 72 h, blood stage): 4800 nM
COc1cc(C(=O)N2CCN(C)CC2)ccc1-c1cc2nccc(-c3ccc4ccncc4c3)c2o1  EC50 (parasite growth; 3D7; blood stage): 890 nM
CN(C)Cc1cc(/C=C/C(=O)c2ccc(Cl)cc2)ccc1O  EC50 (parasite growth; 3D7; 72 h, blood stage): 2690 nM
Cc1ccc(N(C)CC(=O)Nc2ccc(F)c(Cl)c2)cc1S(=O)(=O)N1CCOCC1  EC50 (parasite growth; 3D7; blood stage): 290 nM
COC(=O)c1[nH]c(C(=O)OC)c2c1-c1c[nH]c3ccc(Cl)c(c13)C21CNc2ccc(Cl)cc21 (racemic)  EC50 (parasite growth, SYBR Green; 3D7; 72 h, blood stage): 4400 nM
Cc1cc(N2CC[C@@](C#N)(C3(C)CC3)C2=O)cc(C(=O)NCc2cc(F)cc(-c3cnn(C)c3)c2)n1  EC50 (asexual blood-stage growth, SYBR Green I; 3D7; 48 h): ~1.6 nM
Cc1ccc(NC(C)(C)C(=O)Nc2ccc(F)c(Cl)c2)cc1S(=O)(=O)N1CC2CCC(C1)O2  EC50 (parasite growth; 3D7; blood stage): 35 nM
COC[C@H](NC(=O)[C@H](CCc1ccccc1)NC(=O)CN1CCOCC1)C(=O)N[C@H](/C=C/S(C)(=O)=O)Cc1cccs1  EC50 (flow cytometry YOYO-1; W2 ring stage; 72 h no washout): 8 ± 2 nM
Cc1ccc(CNC(=O)[C@H](CCCCNC(=O)OCc2ccccc2)NC(=O)[C@H](CC2CCCCC2)NC(=O)Cc2cccnc2)cc1  EC50 (parasite growth; D10; 72 h, blood stage): 4220 nM
O=C1C2=C(Nc3ccccc3SC2c2ccsc2)c2ccccc21 (racemic)  EC50 (growth, [3H]hypoxanthine incorporation; 3D7): 44 nM
CC[C@@H](/C=C/S(C)(=O)=O)NC(=O)[C@H](COC)NC(=O)[C@H](CCc1ccccc1)NC(=O)CN1CCOCC1  EC50 (flow cytometry YOYO-1; W2 ring stage; 72 h no washout): 21 ± 5 nM
